Assay results from different studies.
Each numbered part is a random draw from the data of one study; scales do not carry over between parts.

Series 1
Target: Ras GTPase-activating protein-binding protein 1, full length (G3BP1, Homo sapiens, UniProt Q13283)
Chain of UniProt Q13283 (whole entry, looked up): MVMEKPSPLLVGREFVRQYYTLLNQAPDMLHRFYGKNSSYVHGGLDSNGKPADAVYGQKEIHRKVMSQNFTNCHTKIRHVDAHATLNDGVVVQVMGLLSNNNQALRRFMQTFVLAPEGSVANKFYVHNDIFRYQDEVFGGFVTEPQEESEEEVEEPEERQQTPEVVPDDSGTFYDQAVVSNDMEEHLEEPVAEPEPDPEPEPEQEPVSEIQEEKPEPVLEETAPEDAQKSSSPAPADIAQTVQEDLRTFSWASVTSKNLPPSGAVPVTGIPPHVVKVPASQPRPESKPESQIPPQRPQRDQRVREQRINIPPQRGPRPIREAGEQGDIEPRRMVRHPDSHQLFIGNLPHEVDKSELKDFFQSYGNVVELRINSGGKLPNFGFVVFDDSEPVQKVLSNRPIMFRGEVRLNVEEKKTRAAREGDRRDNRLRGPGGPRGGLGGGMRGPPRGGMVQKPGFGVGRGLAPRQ
Technique: RNA Bind-n-Seq
Molecule type: RNA
Medium: in vitro
Tested at: 200 nM
Notes: whole 134-nt RNA, ends assumed
Together with: 150 mM KCl
Baseline: input library
Reading: higher = stronger binding
Constant ends, left off below: GGGAGUUCUACAGUCCGACGAUC … UGGAAUUCUCGGGUGUCAAGG
| Strand | log2 enrichment |
| --- | --- |
| UCCUCAAGUCCUGUGCUACACAUCGUAUGUACCGAAUCGGGAGGAGGAGGGGAAAGUAUUAUGUUACGCCGUUCGGAUCUGCACUUCCAG | 0.257 |
| CUCAAGUCCUGUGCUACACAUCGUAUGUACCGAAUCGGGGAGGGGAGGGAGGGAAAGUAUUAUGUUACGCCGUUCGGAUCUGCACUUCCA | 1.41 |
| UUAUCUGUGGACUUCACCCAAAAGGAGUGGCAGCUACUGGAUCCCUCUCAGAAGAAUUUAUACAAGGAUGUGAUGUUGGAGAACUAUAGC | -0.386 |
| UUGAGAUUGGGUGGAUUCCUAUCAUCUGGAAUUCUGACUCCUCGGGUCUCCUUCUCUAGGUAGCCCAGCAGCAGUGAAGAUGCAGACUGA | -1.35 |
| AAGUCCUGUGCUACACAUCGUAUGUACCGAAUCGGUUUUUGGAAAAAAAGGUUUGGAAAGUAUUAUGUUACGCCGUUCGGAUCUGCACUU | -1.51 |
| AGUCCUGUGCUACACAUCGUAUGUACCGAAUCGGGGUUUGGGGAGGGGAAAAAGGGGAAAGUAUUAUGUUACGCCGUUCGGAUCUGCACU | 0.209 |
| UAACCUUAGAGGAGGAUCUGAUGGAUAUGGCAGUGGACGUGGAUUUGGGGAUGGCUAUAAUGGGUAUGGAGGAGGACCUGGAGGUGGCAA | 0.532 |
| GCAGAAAGUAAAAACAAAUGGAAAUGCUUCGGAUAGUGGCAGGGGUGGGGGUUGCUAAGGAAAGGGUGGGAUGGGAGUGGGUAAAGAGUU | 0.985 |
| UCCUCAAGUCCUGUGCUACACAUCGUAUGUACCGAAUCGGAGGGAGGGAGGGAAAGUAUUAUGUUACGCCGUUCGGAUCUGCACUUCCAG | 1.46 |
| AAGUCCUGUGCUACACAUCGUAUGUACCGAAUCAAACCCAAAUUUAAACCCCCAAAAAAGUAUUAUGUUACGCCGUUCGGAUCUGCACUU | -0.51 |
| GUCCUGUGCUACACAUCGUAUGUACCGAAUCGGGAAAGGGAAAAAAAGGGUUUUUGGGAAAGUAUUAUGUUACGCCGUUCGGAUCUGCAC | -0.479 |
| CCUCAAGUCCUGUGCUACACAUCGUAUGUACCGAAUCGGGUGGGUGGUGGGGAAAGUAUUAUGUUACGCCGUUCGGAUCUGCACUUCCAG | 1.06 |
| UGCAGCAGCGCCAGGAAUCGAGGAUGGUAAAAUGACCCAGGGGAAGAAGAAGAAACGGGCCGCGAACCGCAGUAUCAUGCUGGCCAAGAA | -0.0769 |
| AAGUCCUGUGCUACACAUCGUAUGUACCGAAUCGGGUUUUUGGGAGGGUUUUUGGGAAAGUAUUAUGUUACGCCGUUCGGAUCUGCACUU | -0.173 |

Series 2
Target: RING finger protein unkempt homolog, zinc fingers 1-6, SBP tag (UNK, Homo sapiens, UniProt Q9C0B0, residues 30-357)
Chain of UniProt Q9C0B0 (30-357, looked up): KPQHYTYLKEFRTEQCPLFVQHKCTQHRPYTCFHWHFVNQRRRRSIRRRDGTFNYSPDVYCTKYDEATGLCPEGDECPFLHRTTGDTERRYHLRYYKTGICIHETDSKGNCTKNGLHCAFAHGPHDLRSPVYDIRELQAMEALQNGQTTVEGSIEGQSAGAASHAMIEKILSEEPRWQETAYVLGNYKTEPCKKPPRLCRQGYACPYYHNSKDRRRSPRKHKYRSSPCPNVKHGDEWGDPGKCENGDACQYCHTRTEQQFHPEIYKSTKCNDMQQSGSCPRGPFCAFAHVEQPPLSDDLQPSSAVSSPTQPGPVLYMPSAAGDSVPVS
Technique: RNA Bind-n-Seq
Molecule type: RNA
Medium: in vitro
Tested at: 100 nM
Notes: RNA with constant flanks, vertebrate orthologous sites, ends assumed
Baseline: input RNA pool
Reading: higher = stronger binding
Constant ends, left off below: GGGAGUUCUACAGUCCGACGAUC … CAACAGAGGAUUGAGCAUCA
| Strand | bound/input enrichment [ratio] |
| --- | --- |
| GGAAAGUUACAGACCAGACUCUGAAAGCAGAAGUACAGGAUCCUGGUUAUCAUCAUCUUUGAGGAAUAGAUGUACACCGCUCUUUUCCAGAAGAAGAAGAGAAGGGAGAGAUGAAUCUGC | 0.328 |
| GGUUGAUGUUCUGAAGAACCACUUAGUAAAAGAAGGUCGGGUAGAUGAAGAAAUUGCACUUAGAAUUAUCAAUGAGGGUGCUGCCAUCCUUCGGAGAGAGAAAACCAUGAUAGAAGUAGA | 1.15 |
| UGUUGUUCAAGCACUGUGUUCCAGACCGUGUCUGACCUUAGUGUGACCUAGGAGAGUUUCUAGUUUUGUUUUACCGAGAUCCUGCACGGCAGGCGCACGGCAGCGGAGGGCCACAUCCGC | 0.612 |
| CCUAUACACUUCUCAAGAGAUUUCCUUCUAAGACGCUUUGGCUAGUCCCAUAUUUAACCGUAUUUACAUAUCUAUUUUUUUCUAAGAAUGCCGCUUCCAAGGAGGCCCCUUUCAGGUUCA | 1.9 |
| AGUUAAUGAUGCUAUUGUGUUAGUAAACAAAAUUACUUAUCAGCAACUUUGUUUAUCAUACAAUAUUUUGCAUAAAACAAUUUGUAUACCAAGGCUUUUUAGUGGCCAUAAAUGGCUUUU | 0.343 |
| CUUUUAAUUGAUGAUGUCUGUAAAUGUAUAUUGAGAGAAUUGAAGUAUUUAUAAACAGAGUGAUUUAUUUAAGGAAAGAAAAGCUCAUUCCUCUUUCACAUGGUGGUCUGUGUUAAUUCC | 1.27 |
| AAAUAUGUUGUACAUUUGAUUAAAAUUAUUUAGAUAAAUAUUACUAUGUUGACUUUUAAAUAGCUUUAUCCUAUUUUUCAUUCAUUUUGCAAAUAUUUGUUGUGUGUAGUUUCUUAACGU | 0.553 |
| CCUACAAUAAUGAAAACUUACAGGAAUUUUUUUAUUUUUCAUUUCCCCCUUAGGCAUACUUAGUCUUUUUUUCCCCAGGCAGAUGAUUCUGAGUGUGCGAGUGUGUGCACAUGUUACAGA | 1.76 |
| UGAACUUUUAGCUUUCAAGUUGUGGCUGUUUUUUGUUUUUGUUUUUGUUUUUGUUUUCUUUAGAAUUUUUCCCUGUUUCCCACCUUCUCUUCCCCUGUUGCCAAGGUCUAACUCAUGGAU | 2 |
| UUGGGACCAGCUCUCCAAAUAGGAAUAGUAGUAAAAAAAAUAAGCAAAAUGAUAUUUGUAUAGAAAAAACAGAAGUUAAAUCAUGUAAAGUAAAUGCUGCCAGUGUUCCAGGCCCUAAAG | 1.83 |
| AAAACUCAGGUAUUAUUUAUUUCGCAAUUAUCAAUUGUAUAAAUCUAAUUUAUUAUCAGAUGGUCAUUUAAAAGAAAAGAUUUUUACCUUGACAGGCACUUCCUUUCUUAGCUUCUCAUA | 0.379 |

Series 3
Target: RNA binding protein fox-1 homolog 2, RRM domain, GST-SBP tag (RBFOX2, Homo sapiens, UniProt O43251-10, residues 100-194)
Technique: RNA Bind-n-Seq
Molecule type: RNA
Medium: in vitro
Tested at: 365 nM
Notes: natural RNA segment, single round, ends assumed
Baseline: no-protein control
Reading: higher = stronger binding
Constant ends, left off below: GGGAGUUCUACAGUCCGACGAUC … UGGAAUUCUCGGGUGCCAA
Residues (chain): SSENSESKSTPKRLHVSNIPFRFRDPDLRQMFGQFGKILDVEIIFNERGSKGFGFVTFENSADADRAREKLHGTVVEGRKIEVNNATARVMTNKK
| Strand | RBNS enrichment (R) |
| --- | --- |
| AUAAACAAAAGUAAAUACUAUAAUACAAACUUCCUUCUGAAAUAAAAGUAGAUCUGGUAAAAAUGUGGCUUUUGUUCUGAGUGUUUCAUUUUGAUUUUGCAUUGUUUUGC | 1.05 |
| UAGUGUGUGCCUUCUAUAAAGGAGAAAGCAGCAAGGCCAUGUCCUUAGCAGGAACCUUUGCUAGCCACCUAGUGAAUGCCUGUAACAGGGUCUCUGAGCUGACUCUGUAU | 0.226 |
| AACUGUUUUAAAUCAGGUCUGAUAACUGAUUUAAAUAUAAAUAAUACUAGGAACAAGUAGUUUCCAUAUAUUUCGGAACUUUUAAAAAGACAAAAUGAAACAAAACCGAG | 1.92 |
| AUUUAUGCACAUACUUAAAGGACAGAAAUGUCUGGGAAAGUAAUUGUUAAAUAAUGAUAUGUAACUUUUUAACUUUUUAAAUAAAUAACAAGAUUUUUAAUGUGUGUCUC | 0.477 |
| UAAACAUUUGCUUUAAGAAAACAGUCUUGAAUUUCACAUGCUGCUAUUUUUAUAUUUUGCCAUUUUACAGUACUGUUUUGUUUUGAAUUCAUGCAUAUCAUUGAAAAUUU | 1.51 |
| UCUGCCCACCCCCCACCCUGUCCCUCCGGGGGUGAACCAGCCAGGCUGCACUACAAUGUCCACAGGCAAGAGGCCCCCAGGCCACCAGCAAAUGUCCCGCCCCUGGGGAC | 1.08 |
| ACCCACUUCAGCUGGCUUUGGGGAAAGGGGCAUCAAAUUCAGCCUGCCCCAAGGUUGUCAGAGUCAAGUCUGGGAGCAGAAAAGGGGUGAGUUUUCACAUCCCUGCAUCU | 0.252 |
| UGUGUAUAUAUUGCACCUUGAGUUGUCAGAAGGUAGAAACUGAAAUAAACUAACUUUAAAAAAAAAAGUCUGUUUAAUUUUUAACACAUCCAUGAGGACUUUUUACAGAA | 0.584 |
| UGAUUAUAUCUAUUAAGUGUGCAUUUAUAGUAUCUCCUAUGGAUCAAUUACAGAGCACAAUGACUGUCGUUGGAUAUAUAUGUAUAUGUAUAUGUAUAUUAUAUGUAUAU | 0.405 |
| UCUUCAAAGCAUCUGUGUGAGGGGGUCUUCCCUCUUACAAGAAAGCUGUCUGUUGGGGGUUACAAGCAAGGUGGUAAACGUUAAGCUAGUAUCAUAGUCAUUUAAACCUG | 0.226 |
| GGCAAUCAUUUUGAAUACUGUUCUGUGACCCUGACUGCUAGUUCUGAGGACACUGGUGGCUGUGCUAUGUGUGGCCAUCCUCCAUGUCCCGUCCCUGUAGCUGCUCUGUU | 0.317 |
| UGCAGGAUGAUAGAUCUAACUUAUCAAUGUACUGUCACAGUACAUUAAUCGUUUUAUUUGAGUAGGUAAACAAAUUUGCACACUUUUCCCCAGUGAAUUCCCAACACCUU | 0.919 |

Series 4
Target: Histone acetyltransferase KAT6A, winged helix 2, GST fusion (KAT6A, Homo sapiens, UniProt Q92794, residues 85-181)
Technique: protein binding microarray
Molecule type: double-stranded DNA, one strand shown
Medium: in vitro
Tested at: not given
Notes: 8-mer, flanks averaged, mean of 2 arrays, mostly near background
Baseline: not given
Reading: higher = stronger binding
Construct (chain): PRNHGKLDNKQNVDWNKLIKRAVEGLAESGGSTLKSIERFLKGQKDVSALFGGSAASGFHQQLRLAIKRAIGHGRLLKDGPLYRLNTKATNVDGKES
| Strand | E-score |
| --- | --- |
| AAGCCCTT | -0.175 |
| TAAACGAA | 0.0254 |
| ATCCCGGG | 0.0509 |
| TCGGGCAA | 0.181 |
| GATAAAAA | 0.0794 |
| AACGGTAG | -0.106 |
| ACATGGGC | -0.0192 |
| ATATGCTA | 0.061 |
| AACTTTAA | 0.18 |
| AGTCTTGC | -0.0444 |
| AAACGGTA | 0.0241 |
| GATTTCCC | 0.0333 |
| CGGAGATC | -0.023 |
| AAGAATTG | 0.0177 |
| CCTAGTTA | -0.0673 |
| AATTATAG | -0.115 |
| CTGCGAGC | 0.146 |
| CAGGGCGA | 0.121 |
| AGACAATA | -0.0668 |
| AACTTCAC | -0.102 |
| GATACGCA | 0.127 |
| CGCCGTCA | -0.00419 |
| CGTGAGTA | -0.0086 |
| GGGGATCA | -0.141 |
| ACGGGAAG | -0.23 |

For quick reference, copied from above (series 4):
| Strand | E-score |
| --- | --- |
| ATCCCGGG | 0.0509 |
| TCGGGCAA | 0.181 |
| GATAAAAA | 0.0794 |
| AACGGTAG | -0.106 |
| ACATGGGC | -0.0192 |
| ATATGCTA | 0.061 |
| AACTTTAA | 0.18 |
| AGTCTTGC | -0.0444 |
| AAACGGTA | 0.0241 |
